Published values from different studies.
Each line is one published result; not all experiments were run side by side.
Cell line: HEK293

SMILES | effect on | method | concentration | time | together with | endpoint | result
CC1CCC(C(C)C)C(OC2=C(Cl)C(=O)c3ccccc3C2=O)C1 (stereo not drawn) | – | MTT | concentration not given | – | – | cytotoxicity | not toxic
CCOC(=O)c1cnc2c([N+](=O)[O-])cc(C(F)(F)F)cc2c1NCc1ccc(F)cc1 | – | – | – | – | – | CC50 | ~9 µM
NCC1CCN(c2nc(-c3ccncc3)nc3sc4c(c23)CCCC4)CC1 | – | WST-1 | 2.5 to 10 µM | – | TNFα | cell survival | no effect
Brc1ccc(COc2ccccc2CNCc2cccnc2)cc1 | – | – | – | – | – | cytotoxic concentration | > 12.5 µM
CC1c2cc(c(O)cc2O)C(C)c2cc(c(O)cc2O)C(C)c2cc(c(O)cc2O)C(C)c2cc1c(O)cc2O (stereo not drawn) | – | MTT | – | – | – | CC50 | > 10 µM
Clc1ccc(COc2ccc(CNCc3ccccc3)cc2)cc1 | – | – | – | – | – | cytotoxic concentration | > 50 µM
COc1ccc(N=S(C)(=O)c2c[nH]c3ccc(Br)cc23)cc1 (stereo not drawn) | cytotoxicity | MTT | – | 48 h | – | IC50 | > 40 µM
NS(=O)(=O)c1ccc(Nc2nc3noc(-c4cccc(O)c4)c3s2)cc1 | – | – | – | – | – | CC50 | 9.3 µM
CC[C@H](C)[C@H](NC(=O)[C@H](CC(=O)O)NC(=O)[C@H](CCC(=O)O)NC(=O)[C@@H](N)CC(N)=O)C(=O)N[C@@H](CC(=O)O)C(=O)N[C@@H](CCC(N)=O)C(=O)N[C@@H](CCSC)C(=O)N[C@@H](Cc1ccccc1)C(=O)N[C@@H](CO)C(=O)N[C@H](C(=O)N[C@@H](CC(C)C)C(=O)N[C@@H](CC(C)C)C(=O)NCC(=O)N[C@@H](CCC(=O)O)C(=O)N[C@@]1(C)CCCC=CCCC[C@@](C)(C(=O)N[C@@H](CCC(N)=O)C(=O)N[C@@H](CO)C(=O)O)NC(=O)[C@H](CC(C)C)NC(=O)[C@H](CC(C)C)NC(=O)[C@H](CC(=O)O)NC1=O)[C@@H](C)O | – | – | 40 µM | 24, 48, 72 h | – | cytotoxicity | not toxic
N=C(N)c1ccc(-c2ccc(-c3ccc(C(=N)N)cc3)o2)cc1 | cell viability | – | – | – | – | CC50 | ~180 µM
Clc1ccc(COc2ccccc2CNCc2ccccc2)cc1 | – | – | – | – | – | cytotoxic concentration | > 12.5 µM
NS(=O)(=O)c1ccc(Nc2nc3noc(-c4ccc(Cl)cc4)c3s2)cc1 | – | – | – | – | – | CC50 | 7.94 µM
CN(c1ccccc1C(=O)Nc1ccc(S(=O)(=O)N2CCN(c3cc(C(F)(F)F)cc(Cl)n3)CC2)cc1)S(C)(=O)=O | – | – | 100 µM | 24 h | – | viability | no effect
COc1cc(C(=O)NS(=O)(=O)c2ccccc2C)ccc1Cc1cn(C)c2ccc(NC(=O)OC3CCCC3)cc12 | cytotoxicity | resazurin | – | 24 h | – | highest non-cytotoxic concentration | > 128 µM
C#CCS(=O)(=O)c1ccc(CCN(Cc2cc(Cl)ccc2OCCC)C(=O)Cc2ccsc2)cc1 | – | MTT | 10 µM | 4 h | – | viability reduction | 11%
